Published values gathered from unrelated publications.
Each line is one published result; not all experiments were run side by side.
Target: NAD-dependent protein deacetylase sirtuin-1 (SIRT1, Homo sapiens, UniProt Q96EB6)
One construct used (Q96EB6 193-741): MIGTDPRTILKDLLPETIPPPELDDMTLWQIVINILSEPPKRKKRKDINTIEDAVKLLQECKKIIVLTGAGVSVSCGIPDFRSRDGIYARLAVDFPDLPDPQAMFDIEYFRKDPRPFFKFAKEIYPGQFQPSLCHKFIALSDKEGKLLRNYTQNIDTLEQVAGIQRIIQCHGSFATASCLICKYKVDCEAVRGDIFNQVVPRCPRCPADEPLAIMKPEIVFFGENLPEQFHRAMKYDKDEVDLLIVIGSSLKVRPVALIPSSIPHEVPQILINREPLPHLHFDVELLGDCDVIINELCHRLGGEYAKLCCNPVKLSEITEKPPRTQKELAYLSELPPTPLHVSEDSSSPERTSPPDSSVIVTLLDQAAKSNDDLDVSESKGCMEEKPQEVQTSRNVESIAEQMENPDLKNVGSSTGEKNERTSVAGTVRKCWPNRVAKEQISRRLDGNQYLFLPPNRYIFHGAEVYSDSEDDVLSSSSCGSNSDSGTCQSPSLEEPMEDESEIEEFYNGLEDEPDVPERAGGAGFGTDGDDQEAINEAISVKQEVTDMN

For O=C(NC1CCC1)[C@H](Cc1c[nH]c2ccccc12)NC(=O)[C@H](CCCCNC(=S)NCCc1noc(=O)[nH]1)NS(=O)(=O)c1cccc(F)c1, the inhibition was 37% (enzyme activity, inhibitor; 10 µM).
COc1ccc2nc(C)ccc2c1Nc1sn(C)c(=O)c1C#N gave an inhibition of 7% (enzyme activity, inhibitor; 10 µM).
The inhibition of CCCCCCCCCCCCNC(=S)NCCCC[C@H](NC(=O)OCc1ccccc1)C(=O)N[C@H](C)C(=O)N[C@@H](CCCNC(=N)N)C(N)=O is reported as 78% (enzyme activity, inhibitor; 10 µM).
With O=C(O)CCNC(=S)NCCCC[C@H](NS(=O)(=O)c1cccc(F)c1)C(=O)N[C@@H](Cc1c[nH]c2ccccc12)C(=O)NC1CCC1 the inhibition was 10% (enzyme activity, inhibitor; 10 µM).
CCCCCCCCCCCCNC(=S)NCCCC[C@H](NC(=O)OCc1ccccc1)C(=O)NC(C)(C)C(=O)N[C@@H](CCCNC(=N)N)C(N)=O gave an inhibition of 55% (enzyme activity, inhibitor; 10 µM).
CC(C)C(OC(=O)C(C)(C)C)n1nnnc1CCNC(=S)NCCCC[C@H](NS(=O)(=O)c1cccc(F)c1)C(=O)N[C@@H](Cc1c[nH]c2ccccc12)C(=O)NC1CCC1 (stereo partly drawn) has an inhibition of 76% (enzyme activity, inhibitor; 1 µM).
The inhibition of CCCCCCCCCCCCNC(=S)NCCCC[C@H](NC(=O)OCc1ccccc1)C(=O)N[C@@H](CCCNC(=N)N)C(=O)N[C@@H](CCCNC(=N)N)C(N)=O is reported as 81% (enzyme activity, inhibitor; 1 µM).
Cn1sc(Nc2c(Cl)ccc3ncccc23)c(C#N)c1=O has an inhibition of 10% (enzyme activity, inhibitor; 10 µM).
Under “MST normalised fluorescence”, CC1(C)CC[C@@]2(CO)C(=C3C=C[C@@H]4[C@@]5(C)CC[C@H](O)[C@@](C)(CO)[C@@H]5CC[C@@]4(C)[C@]3(C)C[C@@H]2O)C1 is recorded as 910 a.u. (binding, microscale thermophoresis; 40.3 nM).
